Published values pooled from the literature.
Every numbered part comes from another study and shows a few of its results, in no order.

Study 1
Target: Sal-like protein 4, full length isoform A (SALL4, Homo sapiens, UniProt Q9UJQ4, residues 1-1053)
UniProt Q9UJQ4, sequence (whole entry, looked up): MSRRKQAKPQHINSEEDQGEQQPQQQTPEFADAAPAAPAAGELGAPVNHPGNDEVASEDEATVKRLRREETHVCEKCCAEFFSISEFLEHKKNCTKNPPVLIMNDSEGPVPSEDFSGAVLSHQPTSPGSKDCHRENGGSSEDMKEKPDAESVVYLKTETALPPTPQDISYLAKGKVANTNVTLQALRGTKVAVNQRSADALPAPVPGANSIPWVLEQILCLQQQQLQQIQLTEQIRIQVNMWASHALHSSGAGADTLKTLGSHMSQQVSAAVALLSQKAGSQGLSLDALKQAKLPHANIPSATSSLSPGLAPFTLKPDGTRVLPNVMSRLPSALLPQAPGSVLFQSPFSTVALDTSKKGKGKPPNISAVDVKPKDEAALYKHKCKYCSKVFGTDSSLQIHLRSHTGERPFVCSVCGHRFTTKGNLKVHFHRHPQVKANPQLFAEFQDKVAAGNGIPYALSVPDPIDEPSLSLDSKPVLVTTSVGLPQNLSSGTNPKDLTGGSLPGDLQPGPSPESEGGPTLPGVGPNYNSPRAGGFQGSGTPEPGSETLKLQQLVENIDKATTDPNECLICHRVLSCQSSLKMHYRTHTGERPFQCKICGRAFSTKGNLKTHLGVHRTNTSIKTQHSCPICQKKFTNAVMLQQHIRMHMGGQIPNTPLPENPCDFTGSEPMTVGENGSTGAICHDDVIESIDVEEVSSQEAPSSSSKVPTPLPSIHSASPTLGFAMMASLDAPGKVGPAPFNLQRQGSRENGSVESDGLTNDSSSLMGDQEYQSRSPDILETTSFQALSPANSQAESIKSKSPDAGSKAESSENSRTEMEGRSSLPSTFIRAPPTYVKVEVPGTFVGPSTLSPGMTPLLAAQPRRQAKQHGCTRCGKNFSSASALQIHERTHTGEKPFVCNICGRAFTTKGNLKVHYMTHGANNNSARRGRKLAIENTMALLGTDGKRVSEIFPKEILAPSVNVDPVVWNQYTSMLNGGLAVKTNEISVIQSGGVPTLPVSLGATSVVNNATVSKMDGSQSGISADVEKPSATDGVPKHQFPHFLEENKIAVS
Method: universal PBM
Form: double-stranded DNA, one strand shown
Sample: in vitro
Concentration: 600 nM
Notes: 8-mer, flanks averaged, mean of replicates
Direction: higher = stronger binding
| Strand | E-score |
| --- | --- |
| GAGGTTAA | 0.139 |
| ATGCCAAC | 0.112 |
| CCTTGGGA | -0.244 |
| AAGCTCAA | -0.0463 |
| ACTCATCC | 0.0612 |
| CACTGTTA | 0.0556 |
| CCTAGTCG | -0.119 |
| ACCTGTAG | -0.0555 |
| CGACTCCC | -0.109 |
| TATTTTGA | 0.328 |
| CACTCGCA | -0.198 |
| CACCGGCG | -0.265 |
| CCTAATTC | 0.197 |
| AGGTGCTC | -0.328 |
| CGCGATTC | -0.0817 |
| GAGGATAC | 0.0382 |
| ACTTCTTC | 0.0599 |
| CGGGGGTA | -0.139 |
| GCGGGGCA | -0.283 |
| CCAATTGG | 0.00467 |
| AGGCCGCA | -0.282 |
| AGACCAGA | 0.0624 |
| CTTAGAAC | 0.0502 |
| GTGACCTA | -0.0953 |
| TCCCCGCA | -0.254 |

Study 2
Target: Centromere-binding protein 1, full length, N-terminal tag (CBF1, Saccharomyces cerevisiae, UniProt P17106, residues 1-351)
UniProt P17106, sequence (whole entry, looked up): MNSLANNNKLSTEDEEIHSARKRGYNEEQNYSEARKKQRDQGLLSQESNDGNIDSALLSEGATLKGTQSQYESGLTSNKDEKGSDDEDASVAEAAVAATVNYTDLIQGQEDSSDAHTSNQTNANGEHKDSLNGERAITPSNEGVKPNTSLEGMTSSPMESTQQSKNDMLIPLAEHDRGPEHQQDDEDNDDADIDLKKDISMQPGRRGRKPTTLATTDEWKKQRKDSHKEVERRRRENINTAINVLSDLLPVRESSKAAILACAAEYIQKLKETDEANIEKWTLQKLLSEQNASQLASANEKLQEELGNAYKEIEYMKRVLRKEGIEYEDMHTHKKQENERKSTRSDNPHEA
Method: protein-binding microarray
Form: double-stranded DNA, one strand shown
Sample: in vitro
Concentration: 0.8 µM
Notes: whole 60-bp probe, no competitor
Direction: higher = stronger binding
| Strand | fluorescence intensity [a.u.] |
| --- | --- |
| CTAAACTATGAATTTCACACCATATCCTTATCTTTCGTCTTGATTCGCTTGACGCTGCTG | 510 |
| CTATACCAAAACAACGTGACAACGAAATTCCCCTTCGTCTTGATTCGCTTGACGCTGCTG | 3050 |
| CTATGCATACTTCATCTGACCAATATATTTTCATTCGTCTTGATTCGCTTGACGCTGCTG | 601 |
| CCTAACTACTATAGAAACGTGACATAGCTTCGTACAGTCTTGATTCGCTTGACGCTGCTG | 2060 |
| TGTACGAAGCTATCACACGTATTTATAGTAGTTAGGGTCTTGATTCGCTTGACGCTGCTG | 564 |
| GAAGCAAGCAAACATGGTGTGGGGAAGGTGAGGTAGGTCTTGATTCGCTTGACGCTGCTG | 519 |
| GAAACGTTACGGCACACCGTGATGTACCCGCATTAGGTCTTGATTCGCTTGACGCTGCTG | 531 |
| CTATTGGCTTACGATCACGATGTCAATGATCATTTCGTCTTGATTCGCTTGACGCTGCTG | 899 |
| CTAGCACCTATCCACGAGAGAAAGCAAGGAACATTCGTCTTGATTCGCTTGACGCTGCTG | 541 |
| GAAAATAGCGAGAATATGGTGTGAACAGTAGCATAGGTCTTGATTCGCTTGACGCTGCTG | 504 |
| GAAAGCCATGTTTGGCACGTTCCCTGCTTGAACTAGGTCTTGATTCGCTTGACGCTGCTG | 607 |
| GAATAGTTGAAATAGCGCACGAAAACGAACAGATAGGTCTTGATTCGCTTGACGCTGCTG | 565 |
| CCTAACTACTATAATCACGAAGAATAGCTTCGTACAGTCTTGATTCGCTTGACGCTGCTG | 517 |
| GAACGGTAATTATGTCACGGCTAAAATTTTCATTAGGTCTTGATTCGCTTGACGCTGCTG | 709 |
| TGTACGAAGCTATCCTCCGTGACTATAGTAGTTAGGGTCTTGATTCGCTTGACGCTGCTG | 546 |
| GAAATAGCTTCCGTGCACGTTCCAGTCTTCCCTTAGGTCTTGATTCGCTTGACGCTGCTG | 627 |
| CTACGGATTCCCGAGCACATGGAGTCGCTGAACTTCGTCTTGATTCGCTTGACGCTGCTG | 628 |
| CCTAACTACTATAACCCCGTCACATAGCTTCGTACAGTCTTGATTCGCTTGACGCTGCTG | 512 |
| CTACACTGTTACAATTACCAGGTGAGTAGGATATTCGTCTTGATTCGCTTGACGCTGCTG | 604 |
| GAATTAAATAACACACACGTTATCTCTAGCGGTTAGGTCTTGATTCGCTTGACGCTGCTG | 643 |
| CTAACGTGTGGAGGACATCAGCCCGCAGCACATTTCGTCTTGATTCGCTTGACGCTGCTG | 482 |
| CTAGTGCCGCTTACTCGTGAGAATATCAACCTTTTCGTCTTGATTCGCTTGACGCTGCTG | 563 |
| CTATATAGTTTCGGTCACGGTAGTCTCTAATTATTCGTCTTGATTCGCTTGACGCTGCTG | 720 |
| GAAAATTGTTCATATCAGTTGAATCAGTTGCCATAGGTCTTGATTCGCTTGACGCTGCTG | 542 |
| CTACATTGTTAATAGGCTCAGCTGTTCATAAAATTCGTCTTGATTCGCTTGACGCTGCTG | 694 |

Study 3
Target: PABPC1L2, full length, GST fusion (mouse, UniProt A0ABA7IW68)
Method: RNAcompete
Form: RNA
Sample: in vitro
Concentration: 20 nM
Notes: 7-mer, probes averaged, single round
Reference: mean of 7-mers
Direction: higher = stronger binding
Construct (chain): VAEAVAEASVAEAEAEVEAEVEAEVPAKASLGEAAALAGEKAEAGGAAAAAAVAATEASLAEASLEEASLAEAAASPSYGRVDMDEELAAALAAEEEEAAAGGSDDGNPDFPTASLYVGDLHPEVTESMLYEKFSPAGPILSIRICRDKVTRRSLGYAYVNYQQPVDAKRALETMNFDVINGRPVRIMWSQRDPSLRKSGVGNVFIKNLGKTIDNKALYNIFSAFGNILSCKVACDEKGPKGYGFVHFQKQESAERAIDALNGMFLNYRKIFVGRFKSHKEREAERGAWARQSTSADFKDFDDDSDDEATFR
| Strand | 7-mer Z-score |
| --- | --- |
| UCAAUGA | -0.13 |
| AUUCUAA | -0.282 |
| ACUGAGC | -0.0355 |
| AACUAUU | 0.146 |
| GUCGGUU | -0.26 |
| ACCCAGU | -0.242 |
| CAUCAUU | -0.273 |
| UGAAAUC | -0.184 |
| CAUUCCA | -0.28 |
| UGAACGU | -0.188 |
| AGACGAC | -0.05 |
| GUCUAUU | -0.353 |
| CCCAUAG | -0.36 |
| ACCAAUC | -0.159 |
| GUCAUCG | -0.206 |
| UAAAAGA | 3.63 |
| CAUUCAG | -0.0844 |

Study 4
Target: RNA binding protein fox-1 homolog 2, RRM domain, GST-SBP tag (RBFOX2, Homo sapiens, UniProt O43251-10, residues 100-194)
Method: RNA Bind-n-Seq
Form: RNA
Sample: in vitro
Concentration: 365 nM
Notes: natural RNA segment, single round, ends assumed
Reference: no-protein control
Direction: higher = stronger binding
Construct (chain): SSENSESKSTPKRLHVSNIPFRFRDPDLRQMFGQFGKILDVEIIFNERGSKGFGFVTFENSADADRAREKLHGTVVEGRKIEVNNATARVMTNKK
| Strand | RBNS enrichment (R) |
| --- | --- |
| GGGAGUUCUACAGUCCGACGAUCCCUACCCAGAUGACCAAAAAGCCAGUGGAAACAGUUAAGCCCCUCCAUAUCAGGCUUACCAAGAAUAUGUGCCCUGUUUUUACCCGAGAUUUCUCCACUUGCCUCAAGGCUGGAAUUCUCGGGUGCCAA | 0.668 |
| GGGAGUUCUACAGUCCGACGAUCAUGUUGUGUGGGACCUGGACCGCCCUCUGGAAGAAGAUUGUACCUUGGAGCUUCUCAAGUUUGAGGAUGAGGAAGCUCAGGCAGUGUAUUGGCACUCUAGUGCUCACAUAUGGAAUUCUCGGGUGCCAA | 1.6 |
| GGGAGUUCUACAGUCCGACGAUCCCAGGAUCCCUUUGGUGAGUAUGGUGUUCAGGAUGCACCACCACCACCUCUAGAUACCUUCAGGCAACACAGCCCAGUUUUAACCUCUAGUAUCCAUGACCAAACUAUCCUGGAAUUCUCGGGUGCCAA | 0.416 |
| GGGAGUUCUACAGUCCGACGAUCGGCUGUUCCUCUAUCAGCGAAGACUGGAGACCAACAAACAUUACACAGCUAGCUCUAUAUUCUCUCUGUGGAGUCCCAACACAUGGAGCUCAACUACACAAUAUAAGGCAUGGAAUUCUCGGGUGCCAA | 0.35 |
| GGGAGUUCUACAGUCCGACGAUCAUGUCAAACACUAUAUAACAAGCUGUGGUUUUUAAAAGCUAUUGAAUAAUGUUUACAUUGGUCCCUGAGGACAUGUGUGCUCAGACAUUCAAGAGCUAGGAGGCCAGAGAUGGAAUUCUCGGGUGCCAA | 0.319 |
| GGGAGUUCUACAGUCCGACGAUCGCCACGAAGCAGCAGGAGGCGCCGCCUGGAGGGGAGAUUGACUAGCUUCAGACCCGGAGAUGUUGUUCACGCCCUUGCCCUGUGCCCACCUCUUCUCUUCCUGCCCGGCUUGGAAUUCUCGGGUGCCAA | 0.536 |
| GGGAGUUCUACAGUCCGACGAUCGGAAAUGCAGUCCGGCCUAGGGCUCCCAGCCCUUGACUGUCCUCCUGUGAGGGCCUGAAGCUGGGCCAGGGCCCGUCGCAGCGGAGCCCCCUCUCAGCAGCCCACCGGGUUGGAAUUCUCGGGUGCCAA | 0.538 |
| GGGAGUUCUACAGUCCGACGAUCAGAGUAAUAAAUAUACUUGCUUUAAUUCUUAAGCAUAAGUAAACAUGAUAUAAAAAUAUAUGCUGAAUUACUUGUGAAGAAUGCAUUUAAAGCUAUUUUAAAUGUGUUUUUGGAAUUCUCGGGUGCCAA | 0.474 |
| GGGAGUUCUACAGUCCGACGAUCUGCUCUAUACAAAUUCAGCACCUUUGACUGGUUUUGAGUGUGCAUUUUCUUUUAGUGAUACUGUUACCAGUGGCAGUUUGCUUUACAGAGGGGGAGCCCAGGUGGGAGAGUGGAAUUCUCGGGUGCCAA | 0.309 |
| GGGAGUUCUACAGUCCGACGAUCAAAUAUAUGCAGCACCACUAGCUUGUGCUGGUUUUUAGAUUUUUUUGUUUUCAAAAAAACAUUUGUCAGUAAUUUAACAUCACUACAAAAAGAAGAGUUUGUGACUAUUCUGGAAUUCUCGGGUGCCAA | 0.411 |
| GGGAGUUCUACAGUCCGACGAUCUGUGGAGUCUUCUGUCUUCAUUUUGGCCCCAGCAUUCUUAAUUUCAAAGCUUUAUUCUGUCUGCCUAAGAGAAUCAACCAAAGGUGAUUCUCCUAAAGAGCAGUGAAGGAUGGAAUUCUCGGGUGCCAA | 0.308 |
| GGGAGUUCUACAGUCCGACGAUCGUCAAGGCCAGCCUCGGUGAUGGCCUGAUCCCAGGUACAAGGCCUUGUGAACUGAGUUUGAAACAUGCCUGCUUUGGAGAGACUGGGGCAGUGAACACCCCAGCAGCCUUUGGAAUUCUCGGGUGCCAA | 1 |

Repeated from above (study 3):
| Strand | 7-mer Z-score |
| --- | --- |
| AACUAUU | 0.146 |
| ACCAAUC | -0.159 |
| CAUCAUU | -0.273 |
| UGAAAUC | -0.184 |
| ACUGAGC | -0.0355 |
| GUCGGUU | -0.26 |
| UCAAUGA | -0.13 |
| GUCUAUU | -0.353 |
| UGAACGU | -0.188 |
| UAAAAGA | 3.63 |
| CAUUCCA | -0.28 |
| ACCCAGU | -0.242 |
